Assay results collected from several papers.
Each numbered part is a random draw from the data of one study; scales do not carry over between parts. Positions count from the first letter of the parent shown.
Chain of UniProt P28335 (whole entry, looked up): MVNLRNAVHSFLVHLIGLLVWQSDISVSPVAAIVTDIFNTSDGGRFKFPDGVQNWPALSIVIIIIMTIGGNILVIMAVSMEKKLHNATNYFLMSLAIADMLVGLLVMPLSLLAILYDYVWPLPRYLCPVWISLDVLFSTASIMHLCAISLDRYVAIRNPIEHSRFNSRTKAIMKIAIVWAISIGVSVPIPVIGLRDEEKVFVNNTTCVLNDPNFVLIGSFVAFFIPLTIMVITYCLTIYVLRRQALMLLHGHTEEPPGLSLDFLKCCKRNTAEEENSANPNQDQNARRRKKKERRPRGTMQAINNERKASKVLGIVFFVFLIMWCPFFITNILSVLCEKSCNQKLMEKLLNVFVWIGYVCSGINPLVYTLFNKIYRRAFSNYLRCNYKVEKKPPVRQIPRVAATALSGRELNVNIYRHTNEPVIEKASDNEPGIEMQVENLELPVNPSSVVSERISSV
Chain of UniProt Q16620 (whole entry, looked up): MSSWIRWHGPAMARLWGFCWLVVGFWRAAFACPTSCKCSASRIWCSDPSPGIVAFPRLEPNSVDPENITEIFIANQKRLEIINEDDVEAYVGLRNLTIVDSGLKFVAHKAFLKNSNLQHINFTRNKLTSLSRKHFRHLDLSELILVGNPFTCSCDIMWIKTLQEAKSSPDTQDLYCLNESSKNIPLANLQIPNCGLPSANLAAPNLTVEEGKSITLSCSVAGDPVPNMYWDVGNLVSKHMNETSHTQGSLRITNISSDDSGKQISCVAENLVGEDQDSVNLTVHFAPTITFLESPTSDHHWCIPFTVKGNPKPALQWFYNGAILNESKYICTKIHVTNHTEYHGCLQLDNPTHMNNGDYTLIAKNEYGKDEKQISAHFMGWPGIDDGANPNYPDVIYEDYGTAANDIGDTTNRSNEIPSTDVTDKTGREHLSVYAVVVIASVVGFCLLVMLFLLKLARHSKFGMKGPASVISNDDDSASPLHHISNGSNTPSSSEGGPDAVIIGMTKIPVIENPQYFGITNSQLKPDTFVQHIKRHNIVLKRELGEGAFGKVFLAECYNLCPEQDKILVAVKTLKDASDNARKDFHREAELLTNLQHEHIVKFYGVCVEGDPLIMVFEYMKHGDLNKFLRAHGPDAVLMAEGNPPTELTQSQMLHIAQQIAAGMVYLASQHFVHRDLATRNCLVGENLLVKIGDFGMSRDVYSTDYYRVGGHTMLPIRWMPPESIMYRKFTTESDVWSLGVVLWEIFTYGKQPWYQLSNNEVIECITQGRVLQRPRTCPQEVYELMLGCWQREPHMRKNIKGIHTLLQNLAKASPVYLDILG

Study 1 — read-out: binding; technique: phage display NGS; form: peptide; relative to: input library
Target: UDP-N-acetylglucosamine--peptide N-acetylglucosaminyltransferase 110 kDa subunit (OGT, Homo sapiens, UniProt O15294)
Chain of UniProt O15294 (whole entry, looked up): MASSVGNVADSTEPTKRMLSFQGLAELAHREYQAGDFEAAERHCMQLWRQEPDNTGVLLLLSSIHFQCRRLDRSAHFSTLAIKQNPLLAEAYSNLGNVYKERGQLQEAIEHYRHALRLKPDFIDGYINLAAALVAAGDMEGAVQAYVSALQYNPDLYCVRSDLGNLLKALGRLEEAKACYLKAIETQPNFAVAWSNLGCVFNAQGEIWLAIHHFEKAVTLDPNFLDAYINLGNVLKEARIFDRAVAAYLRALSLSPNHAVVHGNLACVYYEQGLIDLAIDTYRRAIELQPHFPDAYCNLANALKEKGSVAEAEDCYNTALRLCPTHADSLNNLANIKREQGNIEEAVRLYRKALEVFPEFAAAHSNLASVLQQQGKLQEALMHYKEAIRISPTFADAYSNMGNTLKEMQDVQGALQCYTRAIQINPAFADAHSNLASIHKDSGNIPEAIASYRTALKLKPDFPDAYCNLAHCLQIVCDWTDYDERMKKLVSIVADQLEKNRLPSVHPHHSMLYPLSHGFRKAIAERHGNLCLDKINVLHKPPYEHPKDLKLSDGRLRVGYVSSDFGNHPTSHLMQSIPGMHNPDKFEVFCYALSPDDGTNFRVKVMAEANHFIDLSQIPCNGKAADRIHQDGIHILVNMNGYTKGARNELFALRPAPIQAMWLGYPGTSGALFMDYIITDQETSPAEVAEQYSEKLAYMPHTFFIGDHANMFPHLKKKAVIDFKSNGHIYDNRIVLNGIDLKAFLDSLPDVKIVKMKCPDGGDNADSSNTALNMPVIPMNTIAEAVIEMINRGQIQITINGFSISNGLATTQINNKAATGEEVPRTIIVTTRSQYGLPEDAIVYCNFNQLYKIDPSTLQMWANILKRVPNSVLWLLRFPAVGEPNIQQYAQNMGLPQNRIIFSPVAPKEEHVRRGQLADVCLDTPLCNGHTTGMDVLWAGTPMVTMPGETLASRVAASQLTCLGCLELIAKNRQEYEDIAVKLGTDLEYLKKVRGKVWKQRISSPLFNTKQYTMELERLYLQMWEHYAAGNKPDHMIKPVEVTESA
Sequence	minimum log2 enrichment ratio
HTVDFRWEHRWHPHS	1.75
HWDHWQHTINHNVDG	2.9
EFFPPAYQLVVPYGD	3.23
IDLSPKYQIVLNATD	3.31
QYPPAYQISIMPYKG	3.59
TQTQWKFHHYWESHS	2.1
LIARPYQPLYQIIPF	2.41
HVQDLAVYHSHHWH	1.85

Study 2 — target: vanadate, free oxyanion; technique: microfluidic competitive inhibition; medium: in vitro, cell-free expressed; tested at: not given; direction: lower = stronger binding
Setting: derived from inhibition constants, unchanged parent 676 nM
Starting sequence: PafA, mature enzyme, eGFP fusion (Elizabethkingia meningoseptica, UniProt Q9KJX5); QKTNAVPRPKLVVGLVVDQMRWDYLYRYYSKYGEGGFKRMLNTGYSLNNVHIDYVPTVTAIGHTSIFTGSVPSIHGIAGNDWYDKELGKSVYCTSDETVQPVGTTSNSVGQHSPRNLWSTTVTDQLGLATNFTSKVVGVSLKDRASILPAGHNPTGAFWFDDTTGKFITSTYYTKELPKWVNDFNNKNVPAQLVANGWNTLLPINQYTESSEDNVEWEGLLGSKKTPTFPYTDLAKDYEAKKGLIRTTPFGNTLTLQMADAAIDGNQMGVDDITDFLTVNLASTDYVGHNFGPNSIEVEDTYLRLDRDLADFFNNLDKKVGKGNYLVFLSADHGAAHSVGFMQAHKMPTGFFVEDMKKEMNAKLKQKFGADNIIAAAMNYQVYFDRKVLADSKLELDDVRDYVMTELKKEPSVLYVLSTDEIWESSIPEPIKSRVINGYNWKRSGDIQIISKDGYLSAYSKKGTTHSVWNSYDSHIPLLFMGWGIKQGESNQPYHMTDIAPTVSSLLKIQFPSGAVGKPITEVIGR
Change	oxyanion analog dissociation constant
I499G	1.26 µM
L305G	2.44 µM
G265A	692 nM
L329V	1.99 µM
Q366V	725 nM
V189G	588 nM
H475V	1.07 µM
P190V	789 nM

Single results of other studies
Structure (SMILES)	target	read-out	action	tested at	relative to	measurement	value
N/C(=N\[N+](=O)[O-])N/N=C\c1ccc(-c2cccc([N+](=O)[O-])c2)o1	NTRK2 (Homo sapiens, UniProt Q16620)	enzyme activity	inhibitor	0.5 µM	control	remaining activity	82.4%
O=C(NCCCC1CCCCC1)c1ccc(CNC(=O)c2cnn(-c3ccccc3)c2C(F)(F)F)cc1	HTR2C (Homo sapiens, UniProt P28335)	ligand displacement	–	10 µM	–	inhibition	6.21%

A few entries again (study 1):
Sequence	minimum log2 enrichment ratio
IDLSPKYQIVLNATD	3.31
HTVDFRWEHRWHPHS	1.75
